Measured values gathered from unrelated publications.
Protocols differ between the studies behind these lines. ± marks the error that the study gave.
U2AF2: U2AF2 148-342 (Homo sapiens, UniProt P26368)
Sequence of UniProt P26368 (whole entry, looked up): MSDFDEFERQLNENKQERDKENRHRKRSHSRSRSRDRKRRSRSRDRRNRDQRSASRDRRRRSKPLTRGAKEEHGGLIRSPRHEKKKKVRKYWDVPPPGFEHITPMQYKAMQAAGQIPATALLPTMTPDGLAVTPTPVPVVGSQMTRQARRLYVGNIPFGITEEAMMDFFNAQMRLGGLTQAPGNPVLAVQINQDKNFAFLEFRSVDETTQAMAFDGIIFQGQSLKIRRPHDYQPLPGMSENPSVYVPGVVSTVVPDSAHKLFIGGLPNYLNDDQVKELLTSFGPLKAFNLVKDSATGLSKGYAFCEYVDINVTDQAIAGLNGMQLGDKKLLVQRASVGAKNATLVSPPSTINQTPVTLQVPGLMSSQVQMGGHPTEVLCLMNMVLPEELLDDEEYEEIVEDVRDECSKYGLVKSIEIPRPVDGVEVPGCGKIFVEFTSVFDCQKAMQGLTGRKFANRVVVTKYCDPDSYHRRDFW
B1: TNFSF4 51-183 (Homo sapiens, UniProt P23510); sequence looked up; chain QVSHRYPRIQSIKVQFTEYKKEKGFILTSQKEDEIMKVQNNSVIINCDGFYLISLKGYFSQEVNISLHYQKDEEPLFQLKKVRSVNSLMVASLTYKDKVYLNVTTDNTSLDDFHVNGGELILIHQNPGEFCVL
B2: VHH nanobody 6B1 (Lama glama); chain QVQLQESGGGLVQPGGSLRLSCAASGSIFSTDAMGWYRQFPGKNRKLVARISSGDYGDYTNYADSVKGRFTISRDNAKNTVYLQMNSLKPEDTAVYYCNSVPPAPGEYGRDYWGAGTQVTVSS
B3: designed binder (Homo sapiens); chain MASAARLTMMWEEVTCPICLDPFVEPVSIECGHSFCQECISQVGKGGGSVCPVCRQRFLLKNLRPNRQLANMVNNLKEISQEAREGTQGERCAVHGERLHLFCEKDGKALCWVCAQSRKHRDHAMVPLEEAAQEYQEKLQVALGELRRKQELAEKLEVEIAIKRADWKKTVETQKSRIHAEFVQQKNFLVEEEQRQLQELEKDEREQLRILGEKEAKLAQQSQALQELISELDRRCHSSALELLQEVIIVLERSESWNLKDLDITSPELRSVCHVPGLKKMLRTCAGGGGSGGGGSGGGGSRLDAPSYIEVRYVTDAEAVISWDYPLAEIDGFELTYGIKDVPGDRTTIKLTEDDYYYYIDYLKPDTEYEVSLISRRGDMSSNPAKITFKTGL
B4: CDC48A 1-190 (Arabidopsis thaliana, UniProt P54609); chain MSTPAESSDSKSKKDFSTAILERKKSPNRLVVDEAINDDNSVVSLHPATMEKLQLFRGDTILIKGKKRKDTVCIALADETCEEPKIRMNKVVRSNLRVRLGDVISVHQCPDVKYGKRVHILPVDDTVEGVTGNLFDAYLKPYFLEAYRPVRKGDLFLVRGGMRSVEFKVIETDPAEYCVVAPDTEIFCEG
B5: EFR3B 716-787 (Homo sapiens, UniProt Q9Y2G0); chain VPAEEITYETLKKAIVDSVAVEEQERERRRQVVEKFQKAPFEEIAAHCGARASLLQSKLNQIFEITIRPPPS
B6: UPF2 761-1227 (Homo sapiens, UniProt Q9HAU5); sequence looked up; chain EKTVKKKRPPLQEYVRKLLYKDLSKVTTEKVLRQMRKLPWQDQEVKDYVICCMINIWNVKYNSIHCVANLLAGLVLYQEDVGIHVVDGVLEDIRLGMEVNQPKFNQRRISSAKFLGELYNYRMVESAVIFRTLYSFTSFGVNPDGSPSSLDPPEHLFRIRLVCTILDTCGQYFDRGSSKRKLDCFLVYFQRYVWWKKSLEVWTKDHPFPIDIDYMISDTLELLRPKIKLCNSLEESIRQVQDLEREFLIKLGLVNDKDSKDSMTEGENLEEDEEEEEGGAETEEQSGNESEVNEPEEEEGSDNDDDEGEEEEEENTDYLTDSNKENETDEENTEVMIKGGGLKHVPCVEDEDFIQALDKMMLENLQQRSGESVKVHQLDVAIPLHLKSQLRKGPPLGGGEGEAESADTMPFVMLTRKGNKQQFKILNVPMSSQLAANHWNQQQAEQEERMRMKKLTLDINERQEQED
B7: human ECM1; sequence looked up; chain ASEGGFTATGQRQLRPEHFQEVGYAAPPSPPLSRSLPMDHPDSSQHGPPFEGQSQVQPPPSQEATPLQQEKLLPAQLPAEKEVGPPLPQEAVPLQKELPSLQHPNEQKEGTPAPFGDQSHPEPESWNAAQHCQQDRSQGGWGHRLDGFPPGRPSPDNLNQICLPNRQHVVYGPWNLPQSSYSHLTRQGETLNFLEIGYSRCCHCRSHTNRLECAKLVWEEAMSRFCEAEFSVKTRPHWCCTRQGEARFSCFQEEAPQPHYQLRACPSHQPDISSGLELPFPPGVPTLDNIKNICHLRRFRSVPRNLPATDPLQRELLALIQLEREFQRCCRQGNNHTCTWKAWEDTLDKYCDREYAVKTHHHLCCRHPPSPTRDECFARRAPYPNYDRDILTIDIGRVTPNLMGHLCGNQRVLTKHKHIPGLIHNMTARCCDLPFPEQACCAEEEKLTFINDLCGPRRNIWRDPALCCYLSPGDEQVNCFNINYLRNVALVSGDTENAKGQGEQGSTGGTNISSTSEPKEE
B8: IL18 37-193 C74S/T99C/C104S/C112S/P124C/C163S (Homo sapiens, UniProt Q14116); chain YFGKLESKLSVIRNLNDQVLFIDQGNRPLFEDMTDSDSRDNAPRTIFIISMYKDSQPRGMAVCISVKSEKISTLSSENKIISFKEMNCPDNIKDTKSDIIFFQRSVPGHDNKMQFESSSYEGYFLASEKERDLFKLILKKEDELGDRSIMFTVQNED
B9: EFR3A 721-791 (Homo sapiens, UniProt Q14156); chain SNTEEITFEALKKAIDTSGMEEQEKEKRRLVIEKFQKAPFEEIAAQCESKANLLHDRLAQILELTIRPPPS
Sequence of UniProt Q9BZI7 (whole entry, looked up): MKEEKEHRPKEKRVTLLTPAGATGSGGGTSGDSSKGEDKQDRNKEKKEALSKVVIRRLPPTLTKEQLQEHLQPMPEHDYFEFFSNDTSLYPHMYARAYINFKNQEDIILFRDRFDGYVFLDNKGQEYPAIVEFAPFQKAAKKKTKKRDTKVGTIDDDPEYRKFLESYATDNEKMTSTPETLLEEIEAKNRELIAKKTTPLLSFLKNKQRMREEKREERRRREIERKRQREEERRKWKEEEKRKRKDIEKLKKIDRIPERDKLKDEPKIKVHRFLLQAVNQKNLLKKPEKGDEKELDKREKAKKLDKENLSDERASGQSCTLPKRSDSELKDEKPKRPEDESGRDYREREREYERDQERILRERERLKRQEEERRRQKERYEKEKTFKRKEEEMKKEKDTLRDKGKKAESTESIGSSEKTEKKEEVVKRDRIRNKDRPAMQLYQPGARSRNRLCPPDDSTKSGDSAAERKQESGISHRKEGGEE
Sequence of UniProt O75530 (whole entry, looked up): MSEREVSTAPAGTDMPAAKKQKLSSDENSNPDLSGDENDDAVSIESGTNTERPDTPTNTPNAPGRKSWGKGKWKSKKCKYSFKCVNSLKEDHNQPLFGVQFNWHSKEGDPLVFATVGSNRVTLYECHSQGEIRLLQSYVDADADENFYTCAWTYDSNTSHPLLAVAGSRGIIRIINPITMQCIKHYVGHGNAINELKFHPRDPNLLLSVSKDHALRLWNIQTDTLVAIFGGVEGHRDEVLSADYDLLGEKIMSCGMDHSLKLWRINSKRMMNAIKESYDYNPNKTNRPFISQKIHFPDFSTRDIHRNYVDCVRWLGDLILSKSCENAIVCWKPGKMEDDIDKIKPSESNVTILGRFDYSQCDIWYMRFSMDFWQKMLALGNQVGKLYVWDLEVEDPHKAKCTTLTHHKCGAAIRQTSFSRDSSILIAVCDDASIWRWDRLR
Sequence of UniProt P12830 (whole entry, looked up): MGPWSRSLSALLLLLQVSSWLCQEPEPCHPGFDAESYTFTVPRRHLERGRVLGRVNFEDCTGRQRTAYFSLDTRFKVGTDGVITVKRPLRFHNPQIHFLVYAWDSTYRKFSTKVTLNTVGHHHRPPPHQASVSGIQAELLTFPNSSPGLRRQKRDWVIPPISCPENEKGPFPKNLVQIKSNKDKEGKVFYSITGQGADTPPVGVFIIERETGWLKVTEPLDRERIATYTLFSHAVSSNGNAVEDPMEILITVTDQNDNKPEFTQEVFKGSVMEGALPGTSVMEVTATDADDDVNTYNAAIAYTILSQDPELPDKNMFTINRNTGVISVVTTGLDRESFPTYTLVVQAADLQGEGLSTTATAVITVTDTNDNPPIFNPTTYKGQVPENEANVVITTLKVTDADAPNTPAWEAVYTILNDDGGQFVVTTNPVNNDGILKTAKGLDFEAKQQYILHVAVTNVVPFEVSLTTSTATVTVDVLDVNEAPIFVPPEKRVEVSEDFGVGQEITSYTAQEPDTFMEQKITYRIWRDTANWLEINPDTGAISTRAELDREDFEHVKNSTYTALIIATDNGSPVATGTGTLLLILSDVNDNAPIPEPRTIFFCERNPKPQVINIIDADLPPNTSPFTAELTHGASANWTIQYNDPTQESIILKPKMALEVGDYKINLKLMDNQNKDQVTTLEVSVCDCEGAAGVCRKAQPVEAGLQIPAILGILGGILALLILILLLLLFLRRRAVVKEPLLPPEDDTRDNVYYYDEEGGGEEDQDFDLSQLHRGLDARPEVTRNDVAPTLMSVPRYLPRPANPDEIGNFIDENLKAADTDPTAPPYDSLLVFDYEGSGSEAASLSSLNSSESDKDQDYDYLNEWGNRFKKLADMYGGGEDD
Sequence of UniProt P09803 (whole entry, looked up): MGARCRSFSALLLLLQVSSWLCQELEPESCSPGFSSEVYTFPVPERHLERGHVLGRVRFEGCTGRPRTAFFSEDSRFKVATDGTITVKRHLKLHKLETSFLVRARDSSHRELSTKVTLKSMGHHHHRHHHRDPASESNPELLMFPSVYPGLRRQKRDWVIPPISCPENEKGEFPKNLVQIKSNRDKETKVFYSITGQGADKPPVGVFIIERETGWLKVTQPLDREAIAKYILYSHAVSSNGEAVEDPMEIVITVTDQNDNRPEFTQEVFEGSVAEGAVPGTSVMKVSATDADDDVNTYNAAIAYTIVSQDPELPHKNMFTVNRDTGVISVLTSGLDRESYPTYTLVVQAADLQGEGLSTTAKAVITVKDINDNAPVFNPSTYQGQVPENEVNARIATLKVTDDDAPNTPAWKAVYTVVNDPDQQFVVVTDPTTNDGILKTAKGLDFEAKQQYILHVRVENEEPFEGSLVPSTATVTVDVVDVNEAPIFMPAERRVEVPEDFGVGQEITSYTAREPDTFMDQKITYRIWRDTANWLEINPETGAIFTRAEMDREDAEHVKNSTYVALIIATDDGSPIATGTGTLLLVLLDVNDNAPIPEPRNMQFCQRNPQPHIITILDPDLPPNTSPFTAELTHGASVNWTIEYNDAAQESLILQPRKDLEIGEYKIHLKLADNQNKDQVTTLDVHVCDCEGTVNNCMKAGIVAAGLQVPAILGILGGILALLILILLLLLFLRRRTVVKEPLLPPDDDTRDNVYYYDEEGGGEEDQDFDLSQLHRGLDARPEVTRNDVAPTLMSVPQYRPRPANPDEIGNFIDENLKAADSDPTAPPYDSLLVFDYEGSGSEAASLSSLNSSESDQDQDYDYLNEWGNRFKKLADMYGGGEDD
Sequence of UniProt Q94JZ8 (whole entry, looked up): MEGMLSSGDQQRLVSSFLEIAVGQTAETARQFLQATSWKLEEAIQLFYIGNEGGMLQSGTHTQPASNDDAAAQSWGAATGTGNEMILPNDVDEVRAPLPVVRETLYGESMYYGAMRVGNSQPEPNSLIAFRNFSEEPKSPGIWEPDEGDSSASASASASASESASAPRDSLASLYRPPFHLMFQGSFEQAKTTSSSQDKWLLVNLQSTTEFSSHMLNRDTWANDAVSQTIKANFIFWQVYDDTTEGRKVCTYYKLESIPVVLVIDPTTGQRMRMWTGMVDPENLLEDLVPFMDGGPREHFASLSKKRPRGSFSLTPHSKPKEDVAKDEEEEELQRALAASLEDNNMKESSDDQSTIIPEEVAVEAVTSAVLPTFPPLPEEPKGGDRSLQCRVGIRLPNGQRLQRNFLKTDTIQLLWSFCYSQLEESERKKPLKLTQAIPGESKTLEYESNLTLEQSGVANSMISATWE

Substance | tested on | assay | test system | setting | scale | measurement | value
B1 (TNFSF4 51-183) | TNFRSF4 29-170 V53A (Homo sapiens, UniProt P43489) | SPR |  |  |  | koff | 0.02 s⁻¹
B2 (VHH nanobody 6B1) | FXN 90-210 H177C (Homo sapiens, UniProt Q16595) | BLI | VHH |  |  | koff | 0.000608 s⁻¹
CDH1 (Homo sapiens, UniProt P12830) | Cdh1 157-709 (Mus musculus, UniProt P09803) | adhesion frequency micropipette |  |  |  | koff | 0.9 ± 0.1 s⁻¹
B3 (designed binder) | EED (Homo sapiens, UniProt O75530) | BLI | designed binder |  |  | koff | 0.00293 s⁻¹
human integrin beta-1 | PP6C (human) | co-immunoprecipitation, IP-MS | CYB5R4 knockout cells | concentration not given | baseline: CYB5R4 knockout over parental | log2 fold change | 4.08
B4 (CDC48A 1-190) | PUX7 (Arabidopsis thaliana, UniProt Q94JZ8) | BLI |  | 25 °C |  | koff | 0.00021 s⁻¹
B5 (EFR3B 716-787) | TTC7B/FAM126B 1-308 | BLI |  |  |  | koff | 0.000205 s⁻¹
B6 (UPF2 761-1227) | UPF3B (Homo sapiens, UniProt Q9BZI7) | BLI |  |  |  | koff | 0.00199 s⁻¹
B7 (human ECM1) | CYB5R4 knockout human cells | PP4 interaction, 3xFLAG-PP4C IP-MS |  | concentration not given | baseline: CYB5R4 KO over parental | log2 fold change | -0.49
CAUUUUGUU (ssRNA) | U2AF2 | sequencing of bound RNA | RNA | motif only |  | Kd | 4490 nM
B8 | IL18BP (Homo sapiens, UniProt O95998) | SPR |  |  |  | koff | 2.5e-05 s⁻¹
B9 (EFR3A 721-791) | TTC7A/FAM126B FAM126B 1-308 | BLI |  |  |  | koff | 0.000439 s⁻¹
UUUUUCUUU (ssRNA) | U2AF2 | sequencing of bound RNA | RNA | motif only |  | Kd | 560 nM

For quick reference, copied from above:
Substance | tested on | assay | test system | setting | scale | measurement | value
B9 (EFR3A 721-791) | TTC7A/FAM126B FAM126B 1-308 | BLI |  |  |  | koff | 0.000439 s⁻¹
B7 (human ECM1) | CYB5R4 knockout human cells | PP4 interaction, 3xFLAG-PP4C IP-MS |  | concentration not given | baseline: CYB5R4 KO over parental | log2 fold change | -0.49
